Values quoted from earlier work as cited in several papers.
Each line is one published result; not all experiments were run side by side. ± marks the error that the study gave. No end group written: not given here.
CD274: Programmed cell death 1 ligand 1 (CD274, Homo sapiens, UniProt Q9NZQ7)
B1: side-chain stapled; chain WWTNDFCACA (also: sidechain bridge or staple (positions not given here))
UniProt Q00987, sequence (whole entry, looked up): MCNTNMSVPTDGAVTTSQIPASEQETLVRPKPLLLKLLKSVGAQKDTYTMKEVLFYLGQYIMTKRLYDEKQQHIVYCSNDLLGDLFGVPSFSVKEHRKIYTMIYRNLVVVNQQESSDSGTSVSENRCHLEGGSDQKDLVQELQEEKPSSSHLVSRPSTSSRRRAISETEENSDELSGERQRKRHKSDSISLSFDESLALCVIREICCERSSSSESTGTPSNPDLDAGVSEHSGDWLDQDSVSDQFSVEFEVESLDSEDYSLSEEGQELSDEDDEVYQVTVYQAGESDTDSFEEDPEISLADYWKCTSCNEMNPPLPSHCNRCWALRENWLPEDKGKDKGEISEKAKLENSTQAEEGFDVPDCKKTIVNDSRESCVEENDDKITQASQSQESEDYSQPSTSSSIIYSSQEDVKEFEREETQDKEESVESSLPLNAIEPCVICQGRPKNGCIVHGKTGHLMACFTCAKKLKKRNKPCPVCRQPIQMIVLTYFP

| Substance | tested on | test | test system | setting | quantity | value |
| --- | --- | --- | --- | --- | --- | --- |
| NTANRRTTPV | CHAPSYN-110 PDZ domains 2/3 | binding, fluorescence polarization | peptide |  | Kd | 20000 nM |
| KRRWKKNFIAVSAANRFKKISSS | calmodulin EF3/EF4 domain | binding | peptide | pH 7.4 | Kd | 20 ± 10 nM |
| DTKNYKQTSV | CHAPSYN-110 PDZ domain 3 | binding, fluorescence polarization | peptide |  | Kd | 989 nM |
| DKLISILSLLSKRRKADGFRVKKTQKSSAYKKRF | Escherichia coli |  | peptide, DH5α |  | MIC | 6 µM |
| pegcetacoplan |  |  | human | 90 mg/day for 28 days (1.29 mg/kg), arithmetic mean | Cmax | 259 µg/mL |
| MTPSTPPRSRG | Cdc4 | binding | peptide |  | Kd | 4000 nM |
| SETSKSF | CD274 |  | peptide |  | Kd | 82.5 nM |
| NGLTSPQRSPFPK | Cdc4 | binding | peptide |  | Kd | 2600 nM |
| CLQKTPKQC | CD274 |  | peptide |  | Kd | 373 nM |
| RRISSLESEV | CHAPSYN-110 PDZ domain 3 | binding, fluorescence polarization | peptide |  | Kd | 8430 nM |
| DRDRPECSTMVKYEQKLPSLGKYALKRAIKIKFGRK | Escherichia coli |  | peptide, DH5α |  | MIC | 12 µM |
| ZGPWLEEEEEAYGWMDFG | ferric ion | binding, fluorescence spectroscopy | peptide, aqueous solution | pH 4.0, two ferric ions bound | Kd | 620 ± 190 nM |
| FCDGFYA / CYMDV (disulfide) | p185HER2/neu (HER2) | binding | peptide |  | Kd | 300 nM |
| Ac-LTFXEYWAQLXS-NH2 (N-acetyl, C-amide) | E3 ubiquitin-protein ligase Mdm2 (MDM2, Homo sapiens, UniProt Q00987) | binding, fluorescence polarization | peptide |  | Kd | 6.5 ± 0.6 nM |
| B1 | streptavidin | binding, HABA competition |  |  | Kd | 164 nM |
| α-synuclein | Hsp70 |  |  | fibrils | Kd | ~10000 nM |
| TNSKQGETTV | CHAPSYN-110 PDZ domain 3 | binding, fluorescence polarization | peptide |  | Kd | 15800 nM |
| CCL5 | US28 wild type | binding, radioligand competition |  |  | Kd | 1.6 nM |

Some of these lines once more:
| Substance | tested on | test | test system | setting | quantity | value |
| --- | --- | --- | --- | --- | --- | --- |
| SETSKSF | CD274 |  | peptide |  | Kd | 82.5 nM |
| NGLTSPQRSPFPK | Cdc4 | binding | peptide |  | Kd | 2600 nM |
